Assay results collected from several papers.
A part holds a random share of what one study measured.

Sample 1
Target: Sal-like protein 4, full length isoform A (SALL4, Homo sapiens, UniProt Q9UJQ4, residues 1-1053)
Sequence of UniProt Q9UJQ4 (whole entry, looked up): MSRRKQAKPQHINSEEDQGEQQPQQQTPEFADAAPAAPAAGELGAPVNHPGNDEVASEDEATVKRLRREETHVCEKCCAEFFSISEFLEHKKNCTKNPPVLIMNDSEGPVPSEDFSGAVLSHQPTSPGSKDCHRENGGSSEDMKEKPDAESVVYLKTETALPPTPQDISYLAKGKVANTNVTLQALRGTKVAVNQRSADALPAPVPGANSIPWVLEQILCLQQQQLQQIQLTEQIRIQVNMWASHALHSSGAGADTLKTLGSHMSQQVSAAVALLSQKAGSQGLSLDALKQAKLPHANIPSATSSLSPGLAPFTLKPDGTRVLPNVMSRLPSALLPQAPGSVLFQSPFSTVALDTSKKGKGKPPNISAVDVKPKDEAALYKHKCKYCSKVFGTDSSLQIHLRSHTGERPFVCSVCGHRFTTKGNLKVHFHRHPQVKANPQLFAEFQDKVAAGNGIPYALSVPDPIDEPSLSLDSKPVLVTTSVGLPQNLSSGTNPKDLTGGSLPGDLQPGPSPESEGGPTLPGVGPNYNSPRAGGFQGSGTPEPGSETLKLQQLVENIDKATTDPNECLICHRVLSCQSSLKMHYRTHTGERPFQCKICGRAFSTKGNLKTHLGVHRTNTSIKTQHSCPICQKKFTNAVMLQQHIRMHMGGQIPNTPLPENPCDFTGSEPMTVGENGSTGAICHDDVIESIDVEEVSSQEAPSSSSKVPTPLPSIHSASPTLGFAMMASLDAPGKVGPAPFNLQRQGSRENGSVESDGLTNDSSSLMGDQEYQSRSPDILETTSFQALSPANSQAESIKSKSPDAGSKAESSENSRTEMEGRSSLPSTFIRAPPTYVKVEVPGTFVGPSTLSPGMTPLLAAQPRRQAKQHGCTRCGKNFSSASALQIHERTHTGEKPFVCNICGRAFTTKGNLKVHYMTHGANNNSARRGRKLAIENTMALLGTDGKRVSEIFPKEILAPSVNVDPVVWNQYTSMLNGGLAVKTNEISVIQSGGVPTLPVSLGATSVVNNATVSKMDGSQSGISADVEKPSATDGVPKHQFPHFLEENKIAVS
Technique: universal PBM
Molecule type: double-stranded DNA, one strand shown
Medium: in vitro
Concentration: 600 nM
Setting: 8-mer, flanks averaged, mean of replicates
Reading: higher = stronger binding
Quantity: E-score
GAGTATAA: 0.256
GGCACACA: -0.145
CAGAACGA: 0.041
AACACGGC: -0.123
CTCGTAAG: 0.0111
GATCGCCC: -0.314
CGGCCATC: -0.29
ACGGCGTC: -0.301
AAGGTACG: 0.119
AGCAGGAG: -0.0273
TGAGCCCA: -0.237
ATAGTCAG: 0.134
GGACACAA: 0.0944
CACGCGAA: -0.0496
AGCCAACC: -0.165
CCGAATCC: -0.287
CATTGAAA: 0.267
GTTCCTTA: -0.0322

Sample 2
Target: Max-binding protein MNT, bHLH-zipper, MAX partner unstated (MNT, Homo sapiens, UniProt Q99583, residues 220-300)
Technique: protein-binding microarray
Molecule type: double-stranded DNA, one strand shown
Medium: in vitro
Concentration: not given
Setting: k-mer, scored over probes, only values ≥0.25
Reading: higher = stronger binding
Quantity: E-score
Target sequence (chain): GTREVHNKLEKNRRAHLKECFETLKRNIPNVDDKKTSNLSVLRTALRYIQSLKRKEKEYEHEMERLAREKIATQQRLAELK
CCCGCACG: 0.375
CACGCCTC: 0.339
GGGCGTGA: 0.299
CCTTCACG: 0.274
CACCCACA: 0.285
ACCATGTG: 0.484
CATATGCG: 0.309
AACGTGCT: 0.448
AAGCATGA: 0.284
CTCGTGGC: 0.43
CATGCAAA: 0.254
AATACACG: 0.341
AGTCACGC: 0.431
ACGAGGGG: 0.334
AAGCACGT: 0.446
GTAGGGGA: 0.255

Sample 3
Target: RNA binding protein fox-1 homolog 2, RRM domain, GST-SBP tag (RBFOX2, Homo sapiens, UniProt O43251-10, residues 100-194)
Technique: RNA Bind-n-Seq
Molecule type: RNA
Medium: in vitro
Concentration: 365 nM
Setting: natural RNA segment, single round, ends assumed
Relative to: no-protein control
Reading: higher = stronger binding
Quantity: RBNS enrichment (R)
Shared flanks, not repeated: GGGAGUUCUACAGUCCGACGAUC … UGGAAUUCUCGGGUGCCAA
Residues (chain): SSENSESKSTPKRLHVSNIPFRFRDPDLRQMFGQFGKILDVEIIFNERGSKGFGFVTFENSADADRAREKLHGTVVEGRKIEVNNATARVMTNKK
GGCUGCAGUCUCAACCAGGAAUGGCCAGAAGCCUCCACAGCUCCAUUACAGUGCUUUGGCUGGCUGAAGGUGGGAUUUGGGGACAGAAGUUACAUCAGAAUGUCAGAUGG: 0.939
UUUAUUUGCAGGACUAGAAUAAAAAGUUUAAACAUUACAGUAUUUCUGAGCAAACAAAUGUGCUCCAUUCUUUUCCUCCAUGCUCCUAGCGCAGAAUGUUUUCUUGCAGA: 0.822
AUUGCCUGCCUCUGCUGUGAAUUAACUUGUUCUGUGUAUUAAACUGGGCCUGACCCCUCUGCCCACGCUGCCUCGUUCUCCCGUCUGGUUUGGGGCAUCACCAAGAAGGA: 1.42
AUAUAGAUGGAAAUAUACUUUAUAUUUUGUAUCAUCGUGCCUAUAGCCGCUGCCACCGUGUAUAAAUCCUGGUGUAUGCUCCUUAUCCUGGACAUGAAUGUAUUGUACAC: 0.819
GUCUGGACUCAGCCACAAACUCUAAUAAGACCUGUACAUCUGAGAACCUUUCCCGUUACUGCGUUUUCACCACCUGUCUUCCCCAUGCUUUAUUUAUCUGUAUGAACACA: 0.497
AAGGAAUUCACACACGACAGUUGACAGGUCUUCACGCAGGCUGGUUGGUAACGUGCUGCCAGCACAGGGCUGGGUGAUACGUACACCCUAAGCCGGGGGUGCCUGGGGCU: 0.29
UACAGGUGUGAGCCACCGCACCCGGCUCUAUUUAGCUUUUUAAAAAUUAUUUCCUUUCAAGGGCCCUUUAAUAUCUAUCAAGCUCCCUCCCCUAACAAAAUGGGCUGUCC: 0.506
UUAAUGGAACAUUGUACAGUGAAGAGACGACCUGGCAAGUUCUUUGUAGACGUGUUUCAGUGCCUCGUCUGAACAGGAGCCGUUUCACUUCUUUGAAACUCUACAUUUUC: 0.822
AGCUUCUCGGCAUCAGCGCAGCUGCACCACAGGCUGAGCUUACAGAGCUUCAGGCCCAGACUGGGGCACCGAAGCUUUCAGCUUUGGGGGUCAUUCUACCAACAAUCAGU: 0.318
GGCUACUGAUGGCUGAGUUCCACGGGGAGAGCCUGGUUUGGGCACAGGAGGCCACCGCCGAAGGCCACCUUACCUUCCUCCUUGCUGGCCCAGUUGUUGUUUAUUUAUGC: 0.489
ACCUGUUUUCUGAGCUGGCUGACUUGCCAGCCACAAGCUGCUCUUGCAGAGUUCUUACCAUUCCUGUAAAUGUUUUGACUUGUUGCAGAAAUUCCUAUCUACUUUAUUAA: 0.661
UAAAUAAAUACCAUGACUGGCUUUGGGAGAAUCAUGAAAAAUUAAGUCUAUCUUGAAGCUGCCUGUUUGAAGUUUCCCAUGCGUCGCCUUGUGCUUCGGUUUCUAAGGGC: 0.728

Sample 4
Target: Ras GTPase-activating protein-binding protein 1, C-terminal RGG region (G3BP1, Homo sapiens, UniProt Q13283)
Sequence of UniProt Q13283 (whole entry, looked up): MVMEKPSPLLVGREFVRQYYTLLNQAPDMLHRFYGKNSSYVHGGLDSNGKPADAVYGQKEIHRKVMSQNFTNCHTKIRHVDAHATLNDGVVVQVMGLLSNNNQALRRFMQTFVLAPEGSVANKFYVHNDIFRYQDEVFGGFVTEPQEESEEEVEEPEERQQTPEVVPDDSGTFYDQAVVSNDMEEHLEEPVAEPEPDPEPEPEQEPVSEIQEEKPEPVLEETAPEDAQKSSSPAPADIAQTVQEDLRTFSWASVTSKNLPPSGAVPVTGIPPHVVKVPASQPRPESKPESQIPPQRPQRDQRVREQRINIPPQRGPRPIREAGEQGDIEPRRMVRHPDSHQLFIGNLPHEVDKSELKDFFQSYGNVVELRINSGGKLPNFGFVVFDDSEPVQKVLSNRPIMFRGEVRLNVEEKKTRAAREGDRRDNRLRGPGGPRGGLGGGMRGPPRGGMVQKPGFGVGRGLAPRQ
Technique: RNA Bind-n-Seq
Molecule type: RNA
Medium: in vitro
Concentration: 1 µM
Setting: whole 134-nt RNA, ends assumed
Added: 150 mM KCl
Relative to: input library
Reading: higher = stronger binding
Quantity: log2 enrichment
Shared flanks, not repeated: GGGAGUUCUACAGUCCGACGAUC … UGGAAUUCUCGGGUGUCAAGG
CUCAAGUCCUGUGCUACACAUCGUAUGUACCGAAUCGGUUGGGGUUGGUUGGGAAAGUAUUAUGUUACGCCGUUCGGAUCUGCACUUCCA: -0.606
UCCUGUGCUACACAUCGUAUGUACCGAAUCGGGCCCCCCGGGCCCCCCGGCCCCCCGGGGAAAGUAUUAUGUUACGCCGUUCGGAUCUGC: -1.02
CAAGUCCUGUGCUACACAUCGUAUGUACCGAAUCGGGGUUUGGUUUGGGUUUGGGAAAGUAUUAUGUUACGCCGUUCGGAUCUGCACUUC: -0.855
CCAUAGACCCCUUUCUUCUCCCCUUCCCCACGGUAGGAACAUAGCGUGUUUAUAUUUUAUGGCCAAACUAUUUUGAAUUUUGUUGUCCGG: 0.0738
AGUCCUGUGCUACACAUCGUAUGUACCGAAUCAAACCCAAAUUUUUAAAUUUUUAAAAAAGUAUUAUGUUACGCCGUUCGGAUCUGCACU: -1.27
UCCUCAAGUCCUGUGCUACACAUCGUAUGUACCGAAUCGGGCGGCGGCGGGAAAGUAUUAUGUUACGCCGUUCGGAUCUGCACUUCCAGC: -1.07
AGUCCUGUGCUACACAUCGUAUGUACCGAAUCGGGAAAAAGGAAAAAGGGGAAAAAGGAAAGUAUUAUGUUACGCCGUUCGGAUCUGCAC: -1.66
CCCAUCAUGUUCAGAGGUGAGGUCCGUCUGAAUGUCGAAGAGAAGAAGACUCGAGCUGCCAGGGAAGGCGACCGACGAGAUAAUCGCCUU: -2.17
ACCAUGCAGGUGGGCAUCUUUGGGAAGUGGGGCAAGGGGGGGAUAGGGAGGGGGGUAACACUUUGGGAACAGGUGGUCCCAGGUCGUCUC: 1.67
CUCAAGUCCUGUGCUACACAUCGUAUGUACCGAAUCGGAAAGGUGGAAAAAGGAAAGUAUUAUGUUACGCCGUUCGGAUCUGCACUUCCA: -1.35
UGGGAGGUGGAUUUUGUUUAUUUUUUUAGCUGAUUUCCAGGGGUGGGAAUUUUUUUUUAAUAUGUGUCAUGAAUAAAGUUGUUUUUGAAA: 3.49
ACCAUGCAGGUGGGCAUCUUUGGGAAGUGGGGCAAGGAAAGGAUAGGGAGGGGGGUAACACUUUGGGAACAGGUGGUCCCAGGUCGUUUC: -0.988
ACCAUGCAGGUGGGCAUCGUUGGGAAGUGGGGCAAGGGGGGGAUAGGGAGGGGGGUAACACUUUGGGAACAGGUGGUCCCAGGUCGUUUC: -0.88
UCCUGUGCUACACAUCGUAUGUACCGAAUCGGGCCCCCCGGGGCCCCCCGGGCCCCCCGGAAAGUAUUAUGUUACGCCGUUCGGAUCUGC: -0.939

Sample 5
Target: RING finger protein unkempt homolog, zinc fingers 1-6, GST-SBP tag (UNK, Homo sapiens, UniProt Q9C0B0, residues 30-357)
Sequence of UniProt Q9C0B0 (30-357, looked up): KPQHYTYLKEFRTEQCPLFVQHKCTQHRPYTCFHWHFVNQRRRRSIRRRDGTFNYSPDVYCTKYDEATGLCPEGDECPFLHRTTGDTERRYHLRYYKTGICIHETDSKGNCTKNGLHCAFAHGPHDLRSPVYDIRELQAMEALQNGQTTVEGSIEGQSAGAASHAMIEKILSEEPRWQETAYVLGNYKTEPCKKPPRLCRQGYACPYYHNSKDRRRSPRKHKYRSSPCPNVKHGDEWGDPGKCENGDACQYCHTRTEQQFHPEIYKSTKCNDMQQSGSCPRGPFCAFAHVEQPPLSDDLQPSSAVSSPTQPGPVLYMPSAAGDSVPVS
Technique: RNA Bind-n-Seq
Molecule type: RNA
Medium: in vitro
Concentration: not given
Setting: RNA with constant flanks, human-mouse chimeric sites, ends assumed
Relative to: input RNA pool
Reading: higher = stronger binding
Quantity: bound/input enrichment
Shared flanks, not repeated: GGGAGUUCUACAGUCCGACGAUC … CAACAGAGGAUUGAGCAUCA
GCUCCUCCCCGCUCUGCAGCCUGGGGACACUGGGCUGGGACCAGAAUCCAGCUUUCUUUUAAUAGUGUAUAUUUUUUUGUAUCCCGUGACAUUUCAUUUUUUUUAAAUAGUGUAUUUUUU: 65.1 ratio
AAAGAACCUCUCUCUGAAGAAGAGGAAGAAGACAAUGAUGAUGUUGAACCUAUUACUGAAUUUCGAUUUGUGCCCAGUGAUAAGUCAGCAUUGGAGGCGAUGUUCACAGCAAUGUGUGAG: 0.303 ratio
GCUCUUGGGAAUGUAAUCAGCGCCUUGGGGGACAAGAGCAAGAGAGCCACACAUGUCCCUUACAGAGACUCUAAGCUGACAAGACUCUUGCAGGAUUCCCUUGGGGGUAACAGCCAAACC: 0.125 ratio
UAAGUUAUUUUGUACAGCUUUGUAAAUUCUUAACAUUUUUAUAUUGCACAUUUUAUGUUGUUUGGGUAAUUUGGUUCAUUAAGUACAUAGCUAAGGUACAUCUUUCAUUUUUCAGUAAUU: 0.9 ratio
UGUGAACUGAAAGGUGUGAUCUAAAAACAAGAUGACUUUUCCUGGCACAUAUUUCAAAGCAAAGACUUUGUUGCCUGCUGCUUAUUGUCUAAUUUACAGGGAUAUUUAAUUUUGUCAGGU: 0.145 ratio
AAAAUAGACUAUGGCGAGUACAUGGAUAAAAACAAUGUGAGGCGGCAAGCAACAACAAUCAUAGCUGAUAACAUUAUAUUUCUGAGUGACCAGACGAAAGAAAAGGCAUAGAACGGAUGA: 2.43 ratio
UGGCGCCUGCGCUCCCCACUCGUGUUUUUAAGUGUAUUUUUAUAAGAUACAUGUAUUUACAAUUGAGCUUUUGUUACUAUAAUACUGAAUGCUACUGCAAUAUUAUGAAAAUGUUUCAAU: 0.177 ratio
GCAAAGGAUGAUGAGGCGGCAGCUGUUGCACUUUCCUCUCUCGUUCAUGCUUUGGAUGAGUUAAACAUGGUCGCCAUCGUCCGAUAUGCUUAUGACAAAAGAUCUAAUCCUCAAGUCGGU: 0.226 ratio
CAUGUAUCUGCAGUACUUGAUGUGGACUACUCUCCCACUGGGAAGGAAUUUGUGUCUGCCAGCUUUGAUAAGUCUAUUAGAAUCUUUCCUGUGGACAAGAGCCGAAGCAGGGAAGUGUAU: 0.637 ratio
CUGUGCGGGUGACUGUCCUGGAGUGGCUGGAGUUCCCGCCGGAGCGCGGCCAGACUAAUUUUAGAAAAUGCCAAGUAGGAAGUUUGUUGAGGGUGAAGUGGUAAGAGGCCGAUGGCCUGG: 2.7 ratio
CUUAAUGUUAAUAUUUUUGAAUAAAUGAAGCUAAAAUUUUGCUUUCUGGUACAACACGCAUUAAUAAAAGGUUAAGUUUUGUUUUCCACUGAAGUACUAUUUAACAUCUCAGAAAAAAAC: 0.246 ratio

Sample 6
Target: Histone acetyltransferase KAT6A, winged helix 2, GST fusion (KAT6A, Homo sapiens, UniProt Q92794, residues 85-181)
Technique: protein binding microarray
Molecule type: double-stranded DNA, one strand shown
Medium: in vitro
Concentration: not given
Setting: 8-mer, flanks averaged, mean of 2 arrays, mostly near background
Relative to: not given
Reading: higher = stronger binding
Quantity: E-score
Target sequence (chain): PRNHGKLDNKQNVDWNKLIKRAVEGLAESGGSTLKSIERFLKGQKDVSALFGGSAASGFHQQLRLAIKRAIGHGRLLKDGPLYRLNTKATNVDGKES
ATCACCAC: -0.0599
AGGACATC: 0.163
GAAGTGAC: 0.0217
ATACTGGC: -0.0509
ACAATCCA: -0.0246
AGCGTGCA: 0.074
GCCTCACC: 0.0963
AAGAATGC: 0.0165
GGGGACAA: 0.0526
ATACTCAT: -0.0869
GAACGCTA: -0.0966
CAACAAAG: 0.0796
GTGCCGTA: 0.09
CGAAGCCG: 0.13
AGTTAAAC: 0.0247
ATCTGCGG: 0.255
CTGGAGCA: 0.0503
GGTAGTAA: -0.0721
CCTCAACC: 0.0385
GTTTCTAA: 0.0956
CGCTGCAC: 0.0687
CGAGTAAA: 0.0648

Excerpt of the above (sample 6):
AGTTAAAC: 0.0247
ATCTGCGG: 0.255
CTGGAGCA: 0.0503
GGTAGTAA: -0.0721
CCTCAACC: 0.0385
GTTTCTAA: 0.0956
CGCTGCAC: 0.0687
